Published values collected from several papers.
Protocols differ between the studies behind these lines. ± marks the error that the study gave.
G-protein coupled receptor 39: G-protein coupled receptor 39 (Mus musculus, UniProt Q5U431)
UniProt Q5U431, sequence (whole entry, looked up): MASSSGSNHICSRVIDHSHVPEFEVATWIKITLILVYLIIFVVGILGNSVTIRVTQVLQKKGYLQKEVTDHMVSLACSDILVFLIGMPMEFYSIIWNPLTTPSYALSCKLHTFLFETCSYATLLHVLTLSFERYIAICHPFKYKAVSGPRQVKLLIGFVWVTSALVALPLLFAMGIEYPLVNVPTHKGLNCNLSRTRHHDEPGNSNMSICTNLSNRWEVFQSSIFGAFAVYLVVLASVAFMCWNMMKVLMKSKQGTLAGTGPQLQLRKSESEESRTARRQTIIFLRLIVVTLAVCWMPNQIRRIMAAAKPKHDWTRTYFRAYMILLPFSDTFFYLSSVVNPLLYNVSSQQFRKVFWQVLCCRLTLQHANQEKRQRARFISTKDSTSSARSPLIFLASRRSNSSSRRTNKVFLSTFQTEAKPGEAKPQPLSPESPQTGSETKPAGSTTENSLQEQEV
PPARG: Peroxisome proliferator-activated receptor gamma (PPARG, Homo sapiens, UniProt P37231)
UniProt P37231, sequence (whole entry, looked up): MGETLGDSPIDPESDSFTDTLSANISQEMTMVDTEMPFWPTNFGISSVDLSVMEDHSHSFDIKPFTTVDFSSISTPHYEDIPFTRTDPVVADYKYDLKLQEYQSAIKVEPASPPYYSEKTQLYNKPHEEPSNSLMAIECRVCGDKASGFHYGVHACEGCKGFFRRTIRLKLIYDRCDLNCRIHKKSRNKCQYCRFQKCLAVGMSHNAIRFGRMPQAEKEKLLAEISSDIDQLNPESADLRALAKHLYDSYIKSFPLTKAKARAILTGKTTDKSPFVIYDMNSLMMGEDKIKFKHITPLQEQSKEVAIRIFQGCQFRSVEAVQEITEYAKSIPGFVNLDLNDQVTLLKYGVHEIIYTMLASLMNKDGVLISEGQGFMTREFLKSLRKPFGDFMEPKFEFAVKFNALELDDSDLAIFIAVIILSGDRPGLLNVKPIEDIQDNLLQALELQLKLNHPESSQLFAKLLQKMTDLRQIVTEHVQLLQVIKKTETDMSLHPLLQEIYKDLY
NPBWR1: Neuropeptides B/W receptor type 1 (NPBWR1, Homo sapiens, UniProt P48145)
UniProt P48145, sequence (whole entry, looked up): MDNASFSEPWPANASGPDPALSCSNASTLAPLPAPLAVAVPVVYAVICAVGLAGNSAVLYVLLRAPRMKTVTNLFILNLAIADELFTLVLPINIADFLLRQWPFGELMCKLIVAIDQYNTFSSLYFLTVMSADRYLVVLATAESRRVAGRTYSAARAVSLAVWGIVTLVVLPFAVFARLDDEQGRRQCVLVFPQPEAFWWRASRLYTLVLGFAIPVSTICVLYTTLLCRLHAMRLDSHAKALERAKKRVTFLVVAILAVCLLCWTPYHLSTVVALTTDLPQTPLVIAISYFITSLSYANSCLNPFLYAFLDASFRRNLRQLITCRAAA
PPARG ligand-binding domain: Peroxisome proliferator-activated receptor gamma, ligand-binding domain (PPARG, Homo sapiens, UniProt P37231)
UniProt P48061, sequence (whole entry, looked up): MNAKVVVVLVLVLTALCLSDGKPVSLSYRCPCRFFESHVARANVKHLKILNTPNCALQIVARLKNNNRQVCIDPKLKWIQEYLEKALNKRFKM
UniProt P17706, sequence (whole entry, looked up): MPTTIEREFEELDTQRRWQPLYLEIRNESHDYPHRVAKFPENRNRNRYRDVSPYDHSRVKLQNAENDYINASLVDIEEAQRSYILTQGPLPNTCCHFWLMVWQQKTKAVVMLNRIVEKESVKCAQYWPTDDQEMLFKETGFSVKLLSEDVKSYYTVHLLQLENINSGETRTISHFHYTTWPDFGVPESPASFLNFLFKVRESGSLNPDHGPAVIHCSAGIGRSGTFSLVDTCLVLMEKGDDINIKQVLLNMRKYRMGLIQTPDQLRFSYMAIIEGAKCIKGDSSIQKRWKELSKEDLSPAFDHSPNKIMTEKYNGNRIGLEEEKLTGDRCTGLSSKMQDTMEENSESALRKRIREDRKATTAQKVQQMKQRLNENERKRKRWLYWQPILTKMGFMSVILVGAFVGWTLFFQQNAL
UniProt O75582, sequence (whole entry, looked up): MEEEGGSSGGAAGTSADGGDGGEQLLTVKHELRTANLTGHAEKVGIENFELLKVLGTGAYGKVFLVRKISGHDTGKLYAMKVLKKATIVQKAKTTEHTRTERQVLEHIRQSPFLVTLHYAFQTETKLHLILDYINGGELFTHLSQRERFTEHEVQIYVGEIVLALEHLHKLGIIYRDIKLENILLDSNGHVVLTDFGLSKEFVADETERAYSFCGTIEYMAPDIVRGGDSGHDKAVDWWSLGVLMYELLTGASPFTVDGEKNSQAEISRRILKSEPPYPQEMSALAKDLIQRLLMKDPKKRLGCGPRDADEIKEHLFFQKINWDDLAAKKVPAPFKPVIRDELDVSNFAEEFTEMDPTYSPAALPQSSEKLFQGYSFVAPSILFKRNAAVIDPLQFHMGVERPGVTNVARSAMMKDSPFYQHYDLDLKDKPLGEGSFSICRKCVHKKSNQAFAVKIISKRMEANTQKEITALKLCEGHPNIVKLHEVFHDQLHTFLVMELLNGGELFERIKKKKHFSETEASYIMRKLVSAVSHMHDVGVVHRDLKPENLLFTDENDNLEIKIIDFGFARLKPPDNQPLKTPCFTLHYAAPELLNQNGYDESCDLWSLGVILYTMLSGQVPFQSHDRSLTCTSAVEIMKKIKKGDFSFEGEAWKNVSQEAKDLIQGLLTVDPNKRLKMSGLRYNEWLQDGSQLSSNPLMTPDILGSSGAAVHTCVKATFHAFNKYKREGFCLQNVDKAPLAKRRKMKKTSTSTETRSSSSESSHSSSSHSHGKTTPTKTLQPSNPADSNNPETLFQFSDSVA
UniProt P08172, sequence (whole entry, looked up): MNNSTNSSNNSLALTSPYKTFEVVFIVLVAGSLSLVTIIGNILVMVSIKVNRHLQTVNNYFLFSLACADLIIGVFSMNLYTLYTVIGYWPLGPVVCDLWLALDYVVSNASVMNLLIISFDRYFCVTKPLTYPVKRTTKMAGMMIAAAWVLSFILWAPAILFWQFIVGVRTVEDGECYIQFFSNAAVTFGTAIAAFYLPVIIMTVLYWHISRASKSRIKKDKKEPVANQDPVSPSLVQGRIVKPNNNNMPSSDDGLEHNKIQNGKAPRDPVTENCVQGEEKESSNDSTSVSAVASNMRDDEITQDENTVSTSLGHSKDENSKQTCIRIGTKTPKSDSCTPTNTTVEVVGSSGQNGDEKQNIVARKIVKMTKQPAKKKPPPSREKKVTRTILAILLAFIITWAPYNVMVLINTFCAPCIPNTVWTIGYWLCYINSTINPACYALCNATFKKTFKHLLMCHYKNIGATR
UniProt O60930, sequence (whole entry, looked up): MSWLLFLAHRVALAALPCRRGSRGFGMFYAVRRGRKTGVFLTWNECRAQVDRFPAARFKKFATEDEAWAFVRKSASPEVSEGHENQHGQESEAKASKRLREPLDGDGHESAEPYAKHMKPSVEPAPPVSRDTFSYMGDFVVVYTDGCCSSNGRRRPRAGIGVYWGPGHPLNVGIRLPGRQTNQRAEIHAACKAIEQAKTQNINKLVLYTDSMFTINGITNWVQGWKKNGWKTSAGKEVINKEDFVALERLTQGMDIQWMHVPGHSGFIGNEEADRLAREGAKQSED
UniProt Q9SZU7, sequence (whole entry, unmodified, looked up): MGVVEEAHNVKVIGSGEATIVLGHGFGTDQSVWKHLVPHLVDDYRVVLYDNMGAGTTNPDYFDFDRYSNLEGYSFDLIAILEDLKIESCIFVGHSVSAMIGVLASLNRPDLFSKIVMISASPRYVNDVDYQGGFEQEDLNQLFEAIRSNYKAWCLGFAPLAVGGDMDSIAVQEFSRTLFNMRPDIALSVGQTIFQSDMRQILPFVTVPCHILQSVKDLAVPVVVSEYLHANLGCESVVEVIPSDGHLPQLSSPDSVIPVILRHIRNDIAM

SMILES	target	assay	system	setting	measurement	value
CC(=O)N[C@@H]1[C@@H](O[C@@H]2O[C@H](C(=O)O)[C@@H](O[C@@H]3O[C@H](COS(=O)(=O)O)[C@@H](OS(=O)(=O)O)[C@H](O[C@@H]4O[C@H](C(=O)O)[C@@H](O[C@@H]5O[C@H](COS(=O)(=O)O)[C@@H](OS(=O)(=O)O)[C@H](O[C@@H]6O[C@H](C(=O)O)[C@@H](OS(=O)(=O)O)[C@H](OS(=O)(=O)O)[C@H]6OS(=O)(=O)O)[C@H]5NC(C)=O)[C@H](OS(=O)(=O)O)[C@H]4OS(=O)(=O)O)[C@H]3NC(C)=O)[C@H](OS(=O)(=O)O)[C@H]2OS(=O)(=O)O)[C@H](OS(=O)(=O)O)[C@@H](COS(=O)(=O)O)O[C@H]1N=[N+]=[N-]	Stromal cell-derived factor 1 (CXCL12, Homo sapiens, UniProt P48061)	probe displacement, FP competition	–	protein 60 nM, added: TAMRA-labelled sHA tetramer probe	EC50	2.3 ± 0.976 µM
CC(CCC(=O)NCC(=O)O)C1CCC2C3CCC4CC(O)CCC4(C)C3CC(O)C12C (stereo not shown)	G-protein coupled receptor 39	calcium signal, agonist, fluorescence	–	–	EC50	> 200 µM
CC1(C)C[C@@H](Nc2cccc(-c3sc(C(=O)O)c(OCC(=O)O)c3Cl)c2)CCN1S(=O)(=O)Cc1cccc(NC(=O)CN2CCC(c3ccc4c(c3)oc(=O)n4C3CCC(=O)NC3=O)CC2)c1 (stereo partly shown)	Tyrosine-protein phosphatase non-receptor type 2 (PTPN2, Homo sapiens, UniProt P17706)	degrader, HiBiT	B16-F10 cells	24 h	DC50	0.238 ± 0.031 µM
Cc1cccc2c1N(C(=O)n1ccnn1)CC2	KAI2 (Arabidopsis thaliana, UniProt Q9SZU7, S95A)	ITC	–	S95A mutant, mean	Kd	2210 µM
CC(CCC(=O)NCC(=O)O)C1CCC2C3C(O)CC4CC(OS(=O)(=O)O)CCC4(C)C3CCC12C (stereo not shown)	G-protein coupled receptor 39	calcium signal, agonist, fluorescence	–	–	EC50	> 200 µM
Cc1c(Cc2ccc(Cl)c(O[C@H](C)C(=O)O)c2)c2ccc(C(=O)NCc3ccc(C(C)(C)C)cc3)cc2n1C	PPARG	ligand displacement, TR-FRET	–	–	IC50	0.00612 µM
CC(C)(C)n1nc(-c2ccc(Cl)cc2)c2c(N)ncnc21	Proto-oncogene tyrosine-protein kinase Src (SRC, Gallus gallus, UniProt P00523, K249E/P250E/Y527F)	enzyme activity, inhibitor	–	–	Ki	0.043 µM
Cc1cc(O)c(=O)c(O)cc1C(=O)N1CCN(C(=O)c2cccc3ccccc23)CC1	Ribonuclease H1 (Homo sapiens, UniProt O60930)	enzyme activity, inhibitor, FRET cleavage	–	catalytic domain, enzyme-substrate binding	Ki	6 µM
Cc1nn(-c2cccc(N)c2)c(=O)c2cnc(Nc3ccc(N4CCNCC4)cc3)nc12	Ribosomal protein S6 kinase alpha-5 (RPS6KA5, Homo sapiens, UniProt O75582)	enzyme activity, inhibitor	–	–	IC50	0.768 µM
Cc1c(Cc2cc(Cl)cc(OC(C)C(=O)O)c2)c2ccc(C(=O)NC(C)c3ccc(C(C)(C)C)cc3)cc2n1CC1CC1 (stereo not shown)	PPARG	ligand displacement, TR-FRET	–	–	IC50	0.0263 µM
CC(CCC(=O)NCCS(=O)(=O)O)C1CCC2C3CCC4CC(OS(=O)(=O)O)CCC4(C)C3CC(O)C12C (stereo not shown)	G-protein coupled receptor 39	calcium signal, agonist, fluorescence	–	–	EC50	> 200 µM
Cc1c(Cc2ccc(OC(C)C(=O)O)cc2)c2ccc(C(=O)NC(C)c3cccc(C(F)(F)F)c3)cc2n1C (mixture of isomers)	PPARG	ligand displacement, TR-FRET	–	–	IC50	0.082 µM
CC(C)C[C@H](NC(=O)[C@H](CC(C)C)NC(=O)CNC(=O)[C@H](C)NC(=O)[C@H](C)NC(=O)[C@H](CCCNC(=N)N)NC(=O)CNC(=O)CCCCNC(=O)CCCCNC(=O)CCCCNC(=O)[C@H](CCCCN)NC(=O)[C@H](Cc1ccc(O)cc1)NC(=O)[C@@H](N)Cc1cn(C)c2ccccc12)C(N)=O	NPBWR1	calcium signal, agonist	–	–	EC50	> 10 µM
Cc1c(Cc2cccc(OC(C)(C)C(=O)O)c2)c2ccc(C(=O)N[C@@H](C)c3cccc(C(C)C)c3)cc2n1C	PPARG ligand-binding domain	reporter gene, luciferase reporter	HEK293T, Gal4-PPARγ LBD	–	IC50	0.38 µM
C=CCn1c(=O)c2ccccc2n2c(SCC(=O)Nc3ccc(NC(C)=O)cc3)nnc12	Muscarinic acetylcholine receptor M2 (CHRM2, Homo sapiens, UniProt P08172)	allosteric modulator	–	–	Kb	1.41 µM
Cc1c(Cc2cccc(C(C)(C)C(=O)O)c2)c2ccc(C(=O)N[C@@H](C)c3ccc(C(C)(C)C)cc3)cc2n1C	PPARG	ligand displacement, TR-FRET	–	–	IC50	0.171 µM
CC(C)C[C@H](NC(=O)[C@H](CC(C)C)NC(=O)CNC(=O)[C@H](C)NC(=O)[C@H](C)NC(=O)[C@@H](CCCNC(=N)N)NC(=O)CNC(=O)CCCCNC(=O)CCCCNC(=O)CCCCNC(=O)[C@H](CCCCN)NC(=O)[C@H](Cc1ccc(O)cc1)NC(=O)[C@@H](N)Cc1c[nH]c2ccccc12)C(N)=O	NPBWR1	calcium signal, agonist	–	–	EC50	> 10 µM
Cc1c(Cc2ccc(Cl)c(OCC(=O)O)c2)c2ccc(C(=O)NCc3ccc(C(C)(C)C)cc3)cc2n1CC(C)C	PPARG ligand-binding domain	reporter gene, luciferase reporter	HEK293T, Gal4-PPARγ LBD	–	IC50	24.4 µM
CC(CCC(=O)NCCS(=O)(=O)O)C1CCC2C3C(O)CC4CC(OS(=O)(=O)O)CCC4(C)C3CCC12C (stereo not shown)	G-protein coupled receptor 39	calcium signal, agonist, fluorescence	–	–	EC50	> 200 µM

Repeated from above:
SMILES	target	assay	system	setting	measurement	value
CC(C)C[C@H](NC(=O)[C@H](CC(C)C)NC(=O)CNC(=O)[C@H](C)NC(=O)[C@H](C)NC(=O)[C@H](CCCNC(=N)N)NC(=O)CNC(=O)CCCCNC(=O)CCCCNC(=O)CCCCNC(=O)[C@H](CCCCN)NC(=O)[C@H](Cc1ccc(O)cc1)NC(=O)[C@@H](N)Cc1cn(C)c2ccccc12)C(N)=O	NPBWR1	calcium signal, agonist	–	–	EC50	> 10 µM
Cc1nn(-c2cccc(N)c2)c(=O)c2cnc(Nc3ccc(N4CCNCC4)cc3)nc12	Ribosomal protein S6 kinase alpha-5 (RPS6KA5, Homo sapiens, UniProt O75582)	enzyme activity, inhibitor	–	–	IC50	0.768 µM
